{"data": "Assay results pooled from the literature", "organism": "Schistosoma mansoni"}
{"SMILES": "COc1ccc(Nc2cnnc3cc(-c4cnc(N5CCCN(C)CC5)nc4)ccc23)cc1", "system": "adult worms", "setting": "10 µM, 5 h", "how to read": "direction not given", "measurement": "phenotypic severity score", "result": 0}
{"SMILES": "CC1(CNc2nc(-c3cccs3)nc(Cl)c2-c2c(F)cc([N+](=O)[O-])cc2F)COC1", "assay": "worm motility", "system": "adult worms ex vivo", "setting": "24 h", "measurement": "EC50", "result": "2140 nM"}
{"SMILES": "CC1=C(Cn2cnc([N+](=O)[O-])n2)C(=O)c2ccccc2C1=O", "assay": "viability", "system": "adult worms", "setting": "72 h", "measurement": "IC50", "result": "7300 nM"}
{"SMILES": "CCS(=O)(=O)N1CCC2(CC1)NC(=O)N(c1ccc(F)c(C(F)(F)F)c1)C2=O", "system": "NMRI mice, infected", "setting": "oral, 100 mg/kg single dose, 21 days post-treatment, treated day 49 post-infection", "measurement": "worm burden reduction", "result": "26%"}
{"SMILES": "CN1CCN(S(=O)(=O)c2ccc(-c3ccc4c(Nc5cnccn5)cnnc4c3)cc2)CC1", "system": "adult worms", "setting": "10 µM, 24 h", "how to read": "direction not given", "measurement": "phenotypic severity score", "result": 0}
{"SMILES": "CC1=C(Cn2cc(CN3CCN(C(=O)OC(C)(C)C)CC3)nn2)C(=O)c2ccccc2C1=O", "system": "adult worms", "setting": "10 µM, 48 h", "measurement": "killing", "result": "45.4%"}
{"SMILES": "COc1ccc(Nc2cnnc3cc(-c4cnc(N5CCN(C)CC5)nc4)ccc23)cc1", "system": "adult worms", "setting": "10 µM, 1 h", "how to read": "direction not given", "measurement": "phenotypic severity score", "result": 0}
{"SMILES": "Nc1cc(F)c(-c2c(Cl)nc(-c3cccs3)nc2NCC2CCC2)c(F)c1", "assay": "motility", "system": "adult worms, ex vivo", "setting": "24 h", "measurement": "EC50", "result": "158 nM"}
{"SMILES": "CC1(C)NC(=O)N(c2ccc(F)c(Br)c2)C1=O", "system": "adult, infected mice", "setting": "oral, 50 mg/kg single dose", "measurement": "worm burden reduction", "result": "50%"}
{"SMILES": "CC1=C(Cc2cn(CCN3CCC(=O)CC3)nn2)C(=O)c2ccccc2C1=O", "system": "adult worms", "setting": "10 µM, 72 h", "measurement": "killing", "result": "49%"}
{"SMILES": "Fc1cc(F)c(-c2c(Cl)nc(-c3cccs3)nc2N2CCCCCC2)c(F)c1", "assay": "worm motility", "system": "adult worms ex vivo", "setting": "24 h", "measurement": "EC50", "result": "2130 nM"}
{"SMILES": "CC1(C(F)F)NC(=O)N(c2ccc(F)c(C(F)(F)F)c2)C1=O (centres unmarked)", "system": "adult, infected mice", "setting": "oral, 25 mg/kg single dose", "measurement": "worm burden reduction", "result": "93%"}
{"SMILES": "CN1CCN(S(=O)(=O)c2ccc(-c3ccc4nncc(Nc5ncccn5)c4c3)cc2)CC1", "system": "adult worms", "setting": "10 µM, 48 h", "how to read": "direction not given", "measurement": "phenotypic severity score", "result": 0}
{"SMILES": "CC1=C(Cn2cc(COC3COC3)nn2)C(=O)c2ccccc2C1=O", "system": "adult worms", "setting": "10 µM, 24 h", "measurement": "killing", "result": "46.9%"}
{"SMILES": "Fc1cc(F)c(-c2c(Cl)nc(-c3cccs3)nc2NCC2CCC2)c(F)c1", "assay": "worm motility", "system": "adult worms ex vivo", "setting": "24 h", "measurement": "EC50", "result": "780 nM"}
{"SMILES": "CC1(C)NC(=O)N(c2ccc(F)c(CC(F)(F)F)c2)C1=O", "system": "adult, infected mice", "setting": "10 mg/kg", "measurement": "worm burden reduction", "result": "100%"}
{"SMILES": "CC1(CNc2nc(-c3cccs3)nc(Cl)c2-c2c(F)cc(F)cc2F)COC1", "assay": "worm motility", "system": "adult worms ex vivo", "setting": "24 h", "measurement": "EC50", "result": "1240 nM"}
{"SMILES": "CC1=C(Cn2cc(CO)nn2)C(=O)c2ccccc2C1=O", "system": "adult worms", "setting": "25 µM, 48 h", "measurement": "killing", "result": "56.2%"}
{"SMILES": "COc1ccc(Nc2cnnc3ccc(-c4ccc(N5CCN(C)CC5)cc4)cc23)cc1Cl", "system": "adult worms", "setting": "10 µM, 24 h", "how to read": "direction not given", "measurement": "phenotypic severity score", "result": 1}
{"SMILES": "CC1=C(Cn2cc(CN3CCNCC3)nn2)C(=O)c2ccccc2C1=O", "system": "adult worms", "setting": "10 µM, 72 h", "measurement": "killing", "result": "46.2%"}
{"SMILES": "CC1(C(F)(F)F)NC(=O)N(c2ccc(F)c(C(F)(F)F)c2)C1=O (centres unmarked)", "system": "adult, infected mice", "setting": "oral, 50 mg/kg single dose", "measurement": "worm burden reduction", "result": "81%"}
{"SMILES": "CC(C)[C@@H](C)Nc1nc(-c2cccs2)nc(Cl)c1-c1c(F)cc([N+](=O)[O-])cc1F", "assay": "worm motility", "system": "adult worms ex vivo", "setting": "24 h", "measurement": "EC50", "result": "< 300 nM"}
{"SMILES": "CC1=C(Cc2cn(CCN3CCNCC3)nn2)C(=O)c2ccccc2C1=O", "system": "adult worms", "setting": "25 µM, 24 h", "measurement": "killing", "result": "48.4%"}
{"SMILES": "CN1CCN(c2ccc(-c3ccc4nncc(Nc5ncccn5)c4c3)cc2)CC1", "system": "adult worms", "setting": "10 µM, 1 h", "how to read": "direction not given", "measurement": "phenotypic severity score", "result": 0}
{"SMILES": "CC1(CNc2nc(-c3cccs3)nc(Cl)c2-c2c(F)cc(F)cc2F)CC1", "assay": "worm motility", "system": "adult worms ex vivo", "setting": "24 h", "measurement": "EC50", "result": "500 nM"}
{"SMILES": "CN1CCCN(c2ncc(-c3ccc4nncc(Nc5cnccn5)c4c3)cn2)CC1", "system": "adult worms", "setting": "10 µM, 1 h", "how to read": "direction not given", "measurement": "phenotypic severity score", "result": 0}
{"SMILES": "CC1(C)NC(=O)N(c2ccc(F)c(C(F)(F)F)c2F)C1=O", "system": "juvenile, infected mice", "setting": "oral, 100 mg/kg single dose", "measurement": "worm burden reduction", "result": "23%"}
{"SMILES": "CC(C)[C@@H](C)Nc1nc(-c2cccs2)nc(Cl)c1-c1cc(F)cc(F)c1", "assay": "worm motility", "system": "adult worms ex vivo", "setting": "24 h", "measurement": "EC50", "result": "5000 nM"}
{"SMILES": "COc1ccc(Nc2cnnc3ccc(-c4ccc(N5CCN(C)CC5)cc4)cc23)cc1", "system": "adult worms", "setting": "10 µM, 48 h", "how to read": "direction not given", "measurement": "phenotypic severity score", "result": 4}
{"note": "A few entries again:"}
{"SMILES": "CC1=C(Cc2cn(CCN3CCNCC3)nn2)C(=O)c2ccccc2C1=O", "system": "adult worms", "setting": "25 µM, 24 h", "measurement": "killing", "result": "48.4%"}
{"SMILES": "CN1CCN(c2ccc(-c3ccc4nncc(Nc5ncccn5)c4c3)cc2)CC1", "system": "adult worms", "setting": "10 µM, 1 h", "how to read": "direction not given", "measurement": "phenotypic severity score", "result": 0}
{"SMILES": "CC1(CNc2nc(-c3cccs3)nc(Cl)c2-c2c(F)cc(F)cc2F)CC1", "assay": "worm motility", "system": "adult worms ex vivo", "setting": "24 h", "measurement": "EC50", "result": "500 nM"}
{"SMILES": "CN1CCCN(c2ncc(-c3ccc4nncc(Nc5cnccn5)c4c3)cn2)CC1", "system": "adult worms", "setting": "10 µM, 1 h", "how to read": "direction not given", "measurement": "phenotypic severity score", "result": 0}
